Assay results gathered from unrelated publications.
A part holds a random share of what one study measured.

Study 1
Target: RNA binding protein fox-1 homolog 2, RRM domain, GST-SBP tag (RBFOX2, Homo sapiens, UniProt O43251-10, residues 100-194)
Method: RNA Bind-n-Seq
Molecule type: RNA
Medium: in vitro
Concentration: 365 nM
Notes: natural RNA segment, single round, ends assumed
Relative to: no-protein control
Reading: higher = stronger binding
Endpoint: RBNS enrichment (R)
Shared flanks, not repeated: GGGAGUUCUACAGUCCGACGAUC … UGGAAUUCUCGGGUGCCAA
Construct (chain): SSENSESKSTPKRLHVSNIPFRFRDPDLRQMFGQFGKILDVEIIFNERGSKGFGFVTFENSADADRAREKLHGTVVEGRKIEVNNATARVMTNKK
Sequence = CCUCGGAAUGUCUGAGAAGGGAUAAUUUCAUUUCUAAAAGCUCUGAGCACCGUGAGUUUGAUCUCGAGAUGAUCAUGUUUGAGCGAUGUAAAGUGCCCAAGAUCCUGCAC; value = 1.34
Sequence = AGCAUAUUAGAAGAAAGCAAACUGCCAUACAAUAAUUUUCAGUUUCCAAGGCAACCAAGUGGAGAACACAUCACAGGAGACAGGAAAUAUGGCUUGUUCAUAGAAUGAUG; value = 0.693
Sequence = GUUCCUAGUGAUGUGGAGGUUUAUGGGUGAAAAAUUAGUGGAGAGGGAACUCCUCUCCCCCAUUUUGUGUAGAGUGAAAAUAGCCUGAAGCCCCUACUCAGCAGGGCUCU; value = 0.848
Sequence = AACGAUGAUUGAAUGGGAAAAAGAGACUACAAAAUUUGUCGUAGGAUGUAUACAGACUUAUUUUCUUUAUUACAGUAUUAUAAGAAAACAUAUGUAUUUGUAAAAAUGGU; value = 0.981
Sequence = GAGCCAGCAGUCCAGGCUCCUCCUCAGUUACAGUGCUGACAUAAUAAACAGUGACAGAUCAACAGUCUCCUUGAAAUCUGAGUUUUUCUCCACCUGGGGCUGGUGUGGAG; value = 0.606
Sequence = GCUCUGAGCAGUGGCAAUAGAAUGUCAACGGAUUGCAAUCAGAUGGCUCAACUCUGUGUCUCCUGAGCACCAGCAGCCAAGCCUGUUCAUGAUGAUGUGCACACAGUCAU; value = 0.405
Sequence = CUAUCAGAAGAAAACUGUUGUUUGCCUUUCAACCUUGUUUUACAGUUCUGCAGUGUAAUGGAGGACGGGCAACGUGCAUGUGCAGGCUCACCACUCCCAGGCCUCUGACA; value = 11.8
Sequence = GAGCAACUGGCUCCUGGCAGCUGUGCUUGUCCGUUUCCUGUCAGAGUGAUCCCAGGUUUCCUCCUGGCCCGUCCCAUGGUCCCUCCACAGGAGUGUGAGAGGAUGGGGGA; value = 0.21

Study 2
Target: Sal-like protein 4, full length isoform B (SALL4, Homo sapiens, UniProt Q9UJQ4-2, residues 1-616)
Method: universal PBM
Molecule type: double-stranded DNA, one strand shown
Medium: in vitro
Concentration: not given
Notes: 8-mer, flanks averaged, mean of replicates
Reading: higher = stronger binding
Endpoint: E-score
Target sequence (chain): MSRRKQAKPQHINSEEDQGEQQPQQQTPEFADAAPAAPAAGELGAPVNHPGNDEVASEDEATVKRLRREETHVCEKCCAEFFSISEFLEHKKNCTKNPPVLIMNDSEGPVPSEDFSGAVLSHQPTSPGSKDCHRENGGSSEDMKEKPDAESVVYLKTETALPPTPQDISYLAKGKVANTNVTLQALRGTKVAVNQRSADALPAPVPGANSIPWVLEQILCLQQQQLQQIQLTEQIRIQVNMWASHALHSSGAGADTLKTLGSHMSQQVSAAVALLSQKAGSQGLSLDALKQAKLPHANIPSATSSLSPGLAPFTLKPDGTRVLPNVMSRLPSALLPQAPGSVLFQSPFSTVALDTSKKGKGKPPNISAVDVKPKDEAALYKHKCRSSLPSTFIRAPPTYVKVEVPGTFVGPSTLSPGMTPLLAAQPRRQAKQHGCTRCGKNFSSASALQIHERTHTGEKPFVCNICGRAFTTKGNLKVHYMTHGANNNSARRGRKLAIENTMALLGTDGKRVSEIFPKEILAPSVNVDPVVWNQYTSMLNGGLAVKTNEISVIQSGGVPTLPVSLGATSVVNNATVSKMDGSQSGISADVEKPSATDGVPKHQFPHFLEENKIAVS
Sequence = ATCAGCGC; value = -0.157
Sequence = TACATGGA; value = 0.155
Sequence = ATTTGGTG; value = 0.127
Sequence = ATGGGCAA; value = 0.0372
Sequence = CCCGCCAC; value = -0.148
Sequence = CGATCGAC; value = -0.0262
Sequence = GAATCGCA; value = -0.148
Sequence = ACGCCAAA; value = 0.0344
Sequence = GTTTCACA; value = 0.129
Sequence = AGGGTCGA; value = -0.135
Sequence = CCGGCGCA; value = -0.354
Sequence = CCTCTTTA; value = 0.0907
Sequence = GAGCTCTA; value = -0.0965
Sequence = AGTCGACG; value = -0.107
Sequence = CAGGCTGC; value = -0.177
Sequence = ACGTGTCC; value = -0.187

Study 3
Target: Prothrombin, mature alpha-thrombin (F2, Homo sapiens, UniProt P00734)
Method: aptamer microarray, sandwich
Molecule type: DNA with 2'F-ANA
Medium: in vitro
Concentration: 200 nM
Notes: whole 15-mer aptamer, many near background
With: Cy3 exosite-II aptamer, 400 nM
Reading: higher = stronger binding
Endpoint: mean fluorescence intensity
Sequence: GGTTGGTGTGGTTGG
Modification = 2'F-ANA at 3 4 5 6 7 9 10 11 15; value = 51.8 a.u.
Modification = 2'F-ANA at 2 3 4 5 6 8 14 15; value = 55.8 a.u.
Modification = 2'F-ANA at 1 5 6 7 9 13 15; value = 57.6 a.u.
Modification = 2'F-ANA at 1 5 6 10 12 13 15; value = 48.9 a.u.
Modification = 2'F-ANA at 2 4 5 6 7 12 15; value = 184 a.u.
Modification = 2'F-ANA at 4 7 8 10 12; value = 166 a.u.
Modification = 2'F-ANA at 4 7 8 9 10 13 14; value = 63.9 a.u.
Modification = 2'F-ANA at 3 5 9 10 12 13 15; value = 75.8 a.u.
Modification = 2'F-ANA at 2 5 6 11 14 15; value = 133 a.u.
Modification = 2'F-ANA at 2 3 10 14; value = 346 a.u.
Modification = 2'F-ANA at 8 9 11 14; value = 185 a.u.
Modification = 2'F-ANA at 1 3 4 5 7 8 9 10 13 14; value = 47.5 a.u.
Modification = 2'F-ANA at 1 2 4 5 8 9 10 12 13 14; value = 45.1 a.u.
Modification = 2'F-ANA at 2 3 4 5 7 8 10 13 14 15; value = 57.9 a.u.
Modification = 2'F-ANA at 2 4 6 10 11 14; value = 56.7 a.u.
Modification = 2'F-ANA at 1 4 9 13 14; value = 150 a.u.
Modification = 2'F-ANA at 2 4 5 7 9 13 14; value = 44.9 a.u.
Modification = 2'F-ANA at 2 7 9 10 11 12 13; value = 162 a.u.
Modification = 2'F-ANA at 2 3 4 6 7 8 10 11 12 13 14; value = 176 a.u.
Modification = 2'F-ANA at 6 7 8 9 10 11 13 15; value = 145 a.u.
Modification = 2'F-ANA at 2 3 5 8 9 10 11 12 13 14; value = 49.8 a.u.
Modification = 2'F-ANA at 2 3 5 6 8 9 10 11 12 13 14; value = 51.2 a.u.
Modification = 2'F-ANA at 2 3 4 5 10 11 12 13 14 15; value = 421 a.u.
Modification = 2'F-ANA at 2 5 6 7 9 10 12 13 14 15; value = 138 a.u.

Study 4
Target: RING finger protein unkempt homolog, zinc fingers 1-6, GST-SBP tag (UNK, Homo sapiens, UniProt Q9C0B0, residues 30-357)
Chain of UniProt Q9C0B0 (30-357, looked up): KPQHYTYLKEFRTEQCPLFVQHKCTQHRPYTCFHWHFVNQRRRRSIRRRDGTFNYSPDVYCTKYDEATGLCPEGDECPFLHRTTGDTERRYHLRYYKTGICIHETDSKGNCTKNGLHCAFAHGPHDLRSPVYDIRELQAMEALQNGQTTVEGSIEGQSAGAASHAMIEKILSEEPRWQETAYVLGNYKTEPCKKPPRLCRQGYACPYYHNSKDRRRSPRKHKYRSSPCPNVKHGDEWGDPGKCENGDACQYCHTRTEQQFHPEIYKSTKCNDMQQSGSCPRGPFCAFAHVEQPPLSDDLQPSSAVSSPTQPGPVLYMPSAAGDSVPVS
Method: RNA Bind-n-Seq
Molecule type: RNA
Medium: in vitro
Concentration: not given
Notes: RNA with constant flanks, human and mouse sites, ends assumed
Relative to: input RNA pool
Reading: higher = stronger binding
Endpoint: bound/input enrichment
Shared flanks, not repeated: GGGAGUUCUACAGUCCGACGAUC … CAACAGAGGAUUGAGCAUCA
Sequence = UCCCUUCCCCUGGAGCACAACUUUACUUUCUGUGUCUCUGUUUUGCACAAUAAGAAACUCAGUAGGCAAAGGUUGUGUUUUUUUUUUUGGUAAGUUCACUUGCUUUUUAAAAUUUUUAUU; value = 0.341 ratio
Sequence = AUCACUCUAAUUAAUUGUAAUCUGAAUAAAGUGUAACAAUUGUGUAGCCUUUUUGUAUAAAAUAGACAAAUAGAAAAUGGUCCAAUUAGUUUCCUUUUUAAUAUGCUUAAAAUAAGCAGG; value = 6.13 ratio
Sequence = GACACAAUCAUCAACCAGAAACGUUUCAACGAUGGGACCGACGAGAAGAAGAAGCUGUACUGCAUCUACGUCGCGAUUGGUCAGAAGCGGUCCACUGUGGCUCAGCUGGUGAAGAGACUG; value = 0.0954 ratio
Sequence = AAGCUAUUAGCUCCAGAUUGUGAAAUUGUGCAAGAGCUGGGAAAACUCUAUCCAUUGGAGAUUGUGUUUGGAAUGAAUGGAAGAAUAUGGGUCAAAGCUAAGACCAUUCAGCAGACGUUA; value = 0.178 ratio
Sequence = AAGAUUUAAUAUAUAAAGAUUUAAUAUGAGUUAAACAUGUUUCUUAUUCUGUGAUCUCUAAUUAGAAAGUAAAAUUCUGUUGCCAUAAAUAUAAAAGAAAGUUUUCACUUAUAUUUUAGU; value = 4.94 ratio
Sequence = UCUUGGUCUCCAAAUCCUACACCUUACUUUGAAACACCACUGGCUCCCUUUCCCAAUGGUAGUUUUGUGAAUGGCUUUAAUUCGCCAGGAUCUUAUAAAACAAAUGCUGCUGCUAUGAAU; value = 0.802 ratio
Sequence = GAAAACUAUAGGAUGAUCAAAAAAUCAGGUGAAUCAUAUCCUGUGCAUUUCAAAAAAGAAGAAGCUAGUUCAUUAAAUUCUUUACACCUGUUUUCAUCAUCAAGUAAUUCUCACAACAAU; value = 0.979 ratio
Sequence = GCCUGGGAGAUUAACAGGAAACUUCCAAGAUGGAAACUUUGUCUUUCCCCAGAUAUAAUGUAGCUGAGAUUGUGAUUCAUAUUCGCAAUAAGAUCUUAACAGGAGCUGAUGGUAAAAACC; value = 0.558 ratio

A few entries again (study 3):
Modification = 2'F-ANA at 1 5 6 10 12 13 15; value = 48.9 a.u.
Modification = 2'F-ANA at 2 4 5 6 7 12 15; value = 184 a.u.
Modification = 2'F-ANA at 4 7 8 10 12; value = 166 a.u.
Modification = 2'F-ANA at 4 7 8 9 10 13 14; value = 63.9 a.u.
Modification = 2'F-ANA at 3 5 9 10 12 13 15; value = 75.8 a.u.
